Experimental data from different studies.
Every numbered part comes from another study and shows a few of its results, in no order. “And” joins repeats or separate records; there may be more than shown.
UniProt P20794, sequence (whole entry, looked up): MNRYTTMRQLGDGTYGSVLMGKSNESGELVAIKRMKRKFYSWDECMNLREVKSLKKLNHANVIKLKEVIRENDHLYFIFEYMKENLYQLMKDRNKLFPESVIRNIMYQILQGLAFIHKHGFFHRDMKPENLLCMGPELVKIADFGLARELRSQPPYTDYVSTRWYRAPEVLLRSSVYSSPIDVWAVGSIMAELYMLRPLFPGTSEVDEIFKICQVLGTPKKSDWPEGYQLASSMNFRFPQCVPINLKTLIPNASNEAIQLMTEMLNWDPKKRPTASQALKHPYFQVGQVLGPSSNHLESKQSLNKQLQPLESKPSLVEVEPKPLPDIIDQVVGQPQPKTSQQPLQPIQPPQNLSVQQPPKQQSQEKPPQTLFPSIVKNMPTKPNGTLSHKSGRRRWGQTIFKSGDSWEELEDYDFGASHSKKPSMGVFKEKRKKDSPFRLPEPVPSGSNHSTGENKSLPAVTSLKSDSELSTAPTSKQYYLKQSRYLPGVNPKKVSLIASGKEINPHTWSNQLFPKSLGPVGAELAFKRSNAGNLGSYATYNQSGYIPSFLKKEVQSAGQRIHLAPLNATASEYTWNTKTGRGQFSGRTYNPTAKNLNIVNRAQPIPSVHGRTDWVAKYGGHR
UniProt Q13557, sequence (whole entry, looked up): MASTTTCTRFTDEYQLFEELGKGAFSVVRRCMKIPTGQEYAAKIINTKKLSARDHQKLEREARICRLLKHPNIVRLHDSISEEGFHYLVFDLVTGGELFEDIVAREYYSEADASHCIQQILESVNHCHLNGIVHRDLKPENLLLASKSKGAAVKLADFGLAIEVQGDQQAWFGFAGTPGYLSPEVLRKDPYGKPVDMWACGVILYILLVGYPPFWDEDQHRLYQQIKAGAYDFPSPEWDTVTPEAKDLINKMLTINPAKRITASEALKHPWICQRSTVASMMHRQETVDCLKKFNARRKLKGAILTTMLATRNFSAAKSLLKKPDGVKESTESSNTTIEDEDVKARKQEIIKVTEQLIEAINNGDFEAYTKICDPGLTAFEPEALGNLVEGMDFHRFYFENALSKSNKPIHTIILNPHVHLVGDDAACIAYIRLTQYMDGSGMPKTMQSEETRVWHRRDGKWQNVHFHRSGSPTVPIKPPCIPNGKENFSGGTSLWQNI
UniProt Q9HBY8, sequence (whole entry, looked up): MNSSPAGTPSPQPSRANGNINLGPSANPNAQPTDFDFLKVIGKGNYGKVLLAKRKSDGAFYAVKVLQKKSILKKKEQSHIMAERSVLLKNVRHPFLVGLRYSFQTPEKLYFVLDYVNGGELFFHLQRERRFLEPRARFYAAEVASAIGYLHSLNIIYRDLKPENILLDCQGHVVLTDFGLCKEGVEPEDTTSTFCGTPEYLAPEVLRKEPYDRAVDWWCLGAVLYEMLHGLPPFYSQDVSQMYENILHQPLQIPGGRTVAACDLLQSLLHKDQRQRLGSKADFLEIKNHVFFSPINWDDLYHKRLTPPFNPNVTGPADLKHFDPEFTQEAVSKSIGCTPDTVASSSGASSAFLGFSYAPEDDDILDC
UniProt P53350, sequence (whole entry, looked up): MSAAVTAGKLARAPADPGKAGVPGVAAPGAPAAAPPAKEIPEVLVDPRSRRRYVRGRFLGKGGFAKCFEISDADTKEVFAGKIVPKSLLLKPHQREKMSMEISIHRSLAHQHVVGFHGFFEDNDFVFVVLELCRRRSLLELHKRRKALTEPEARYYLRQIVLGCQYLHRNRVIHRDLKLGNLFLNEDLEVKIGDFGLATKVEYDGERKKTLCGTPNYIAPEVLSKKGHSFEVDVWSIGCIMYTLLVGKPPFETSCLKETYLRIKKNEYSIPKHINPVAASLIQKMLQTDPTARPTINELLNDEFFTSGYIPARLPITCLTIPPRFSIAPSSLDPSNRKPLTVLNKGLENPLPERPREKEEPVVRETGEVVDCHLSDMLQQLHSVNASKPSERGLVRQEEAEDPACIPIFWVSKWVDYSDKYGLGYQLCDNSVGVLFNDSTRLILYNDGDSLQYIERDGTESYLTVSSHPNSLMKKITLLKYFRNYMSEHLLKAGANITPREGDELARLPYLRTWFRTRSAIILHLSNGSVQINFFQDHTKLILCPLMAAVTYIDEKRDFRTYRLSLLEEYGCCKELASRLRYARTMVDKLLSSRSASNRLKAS
UniProt Q15418, sequence (whole entry, looked up): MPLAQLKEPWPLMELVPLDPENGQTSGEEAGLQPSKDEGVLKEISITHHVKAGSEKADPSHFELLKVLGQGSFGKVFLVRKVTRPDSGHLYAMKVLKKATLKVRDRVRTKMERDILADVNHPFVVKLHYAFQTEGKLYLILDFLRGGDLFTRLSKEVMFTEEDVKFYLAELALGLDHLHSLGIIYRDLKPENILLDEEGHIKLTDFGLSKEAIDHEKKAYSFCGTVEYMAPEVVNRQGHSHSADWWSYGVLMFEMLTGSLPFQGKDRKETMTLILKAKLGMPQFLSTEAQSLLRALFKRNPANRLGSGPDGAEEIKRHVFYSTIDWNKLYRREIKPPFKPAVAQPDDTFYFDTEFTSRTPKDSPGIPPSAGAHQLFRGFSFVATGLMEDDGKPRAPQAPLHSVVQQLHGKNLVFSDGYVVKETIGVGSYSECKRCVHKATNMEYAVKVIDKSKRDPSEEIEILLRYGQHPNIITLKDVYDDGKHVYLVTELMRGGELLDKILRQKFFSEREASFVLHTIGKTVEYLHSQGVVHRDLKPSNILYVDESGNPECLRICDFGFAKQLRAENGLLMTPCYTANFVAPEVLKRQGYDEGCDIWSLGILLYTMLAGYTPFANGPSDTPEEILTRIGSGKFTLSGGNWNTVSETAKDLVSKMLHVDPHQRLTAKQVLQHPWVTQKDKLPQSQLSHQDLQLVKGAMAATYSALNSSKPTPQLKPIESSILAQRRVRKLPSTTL
UniProt Q9BRS2, sequence (whole entry, looked up): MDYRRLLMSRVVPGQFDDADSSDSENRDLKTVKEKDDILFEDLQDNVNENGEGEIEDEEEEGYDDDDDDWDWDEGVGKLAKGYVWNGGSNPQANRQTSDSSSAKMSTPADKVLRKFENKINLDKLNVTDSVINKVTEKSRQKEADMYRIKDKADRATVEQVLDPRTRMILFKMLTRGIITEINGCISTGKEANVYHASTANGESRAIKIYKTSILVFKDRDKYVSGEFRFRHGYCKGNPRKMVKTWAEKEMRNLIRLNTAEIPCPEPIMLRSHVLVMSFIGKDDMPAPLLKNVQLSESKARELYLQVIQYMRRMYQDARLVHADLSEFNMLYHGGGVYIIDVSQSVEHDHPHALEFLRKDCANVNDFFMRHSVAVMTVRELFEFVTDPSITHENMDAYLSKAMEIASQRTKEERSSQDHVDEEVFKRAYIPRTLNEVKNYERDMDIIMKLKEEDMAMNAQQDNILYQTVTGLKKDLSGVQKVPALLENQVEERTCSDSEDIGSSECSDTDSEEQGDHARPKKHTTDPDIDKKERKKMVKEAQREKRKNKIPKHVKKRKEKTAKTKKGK

Study 1
Target: Serine/threonine-protein kinase Nek9 (NEK9, Homo sapiens, UniProt Q8TD19)
UniProt Q8TD19, sequence (whole entry, looked up): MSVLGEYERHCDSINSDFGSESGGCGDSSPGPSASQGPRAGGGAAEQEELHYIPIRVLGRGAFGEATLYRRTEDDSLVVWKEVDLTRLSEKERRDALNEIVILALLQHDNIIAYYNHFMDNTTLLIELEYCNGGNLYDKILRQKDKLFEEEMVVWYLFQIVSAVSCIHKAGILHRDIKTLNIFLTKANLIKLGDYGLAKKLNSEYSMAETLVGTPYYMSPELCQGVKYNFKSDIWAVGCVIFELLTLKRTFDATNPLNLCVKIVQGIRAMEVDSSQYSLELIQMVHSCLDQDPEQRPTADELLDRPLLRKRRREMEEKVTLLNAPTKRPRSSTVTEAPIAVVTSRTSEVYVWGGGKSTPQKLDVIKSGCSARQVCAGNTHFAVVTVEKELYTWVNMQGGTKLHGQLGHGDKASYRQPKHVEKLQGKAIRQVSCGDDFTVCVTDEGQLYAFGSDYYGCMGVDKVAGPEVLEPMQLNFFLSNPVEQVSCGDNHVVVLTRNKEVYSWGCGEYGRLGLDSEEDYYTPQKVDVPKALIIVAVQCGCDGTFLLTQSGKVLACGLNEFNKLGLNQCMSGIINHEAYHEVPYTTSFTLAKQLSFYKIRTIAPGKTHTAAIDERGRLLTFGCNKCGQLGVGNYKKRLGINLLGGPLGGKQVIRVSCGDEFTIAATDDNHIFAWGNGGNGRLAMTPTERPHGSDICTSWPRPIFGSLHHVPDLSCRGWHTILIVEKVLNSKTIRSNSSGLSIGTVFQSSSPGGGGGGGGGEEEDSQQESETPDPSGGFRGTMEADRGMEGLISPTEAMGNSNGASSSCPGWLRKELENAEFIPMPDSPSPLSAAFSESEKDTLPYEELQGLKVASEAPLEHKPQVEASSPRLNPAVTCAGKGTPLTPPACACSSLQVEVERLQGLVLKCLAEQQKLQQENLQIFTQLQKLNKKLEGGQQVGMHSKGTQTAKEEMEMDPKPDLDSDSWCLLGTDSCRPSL
Read-out: enzyme activity
Action: inhibitor
Concentration: 0.5 µM
Reference: control
Structure (SMILES)	remaining activity [%]
Nc1[nH]nc2nc3ccccc3nc12	98.5
C#Cc1cccc(Nc2ncnc3cc(OCCOC)c(OCCOC)cc23)c1	99.5
Nc1ccc2ncnc(NCCc3ccc(Oc4ccccc4)cc3)c2c1	95.8
NCCNc1ncc(C(N)=O)c(Nc2cccc(C(F)(F)F)c2)n1	95.4
COc1cc2ncnc(Nc3ccc(F)c(Cl)c3)c2cc1OCCCN1CCOCC1	99.3
CC(C)[C@H](CO)Nc1nc(Nc2cc(N)cc(Cl)c2)c2ncn(C(C)C)c2n1	69.4
Cc1ccc(NC(=O)c2ccc(CN3CCN(C)CC3)cc2)cc1Nc1nc(-c2cccnc2)cs1	98.6
OCC(O)CCON=C1C(c2c(O)[nH]c3ccccc23)=Nc2ccccc21 (centres unmarked)	73.6
O=C1NC(=O)C(c2cn(CCCn3ccnc3)c3ccccc23)=C1Nc1ccccc1	89.1
COc1cc2nccc(Oc3ccc(NC(=S)NC(=O)c4ccccc4C)cc3)c2cc1OC	103
COc1cc2ncnc(Nc3ccc(Oc4ccccc4)cc3)c2cc1OC	97.8
O=C(O)c1ccc2c3c1cccc3c(=O)n1c3ccccc3nc21	94.1
Cc1nc(-c2ccccc2)c(-c2ccncc2)o1	97.2
CCOC(=O)c1c(C)[nH]c(/C=C2\C(=O)Nc3ccccc32)c1C	80.8
COc1ccc(OC)c2c(=S)c3ccccc3[nH]c12	95.8

Study 2
Target: 5-hydroxytryptamine receptor 1B (HTR1B, Homo sapiens, UniProt P28222)
UniProt P28222, sequence (whole entry, looked up): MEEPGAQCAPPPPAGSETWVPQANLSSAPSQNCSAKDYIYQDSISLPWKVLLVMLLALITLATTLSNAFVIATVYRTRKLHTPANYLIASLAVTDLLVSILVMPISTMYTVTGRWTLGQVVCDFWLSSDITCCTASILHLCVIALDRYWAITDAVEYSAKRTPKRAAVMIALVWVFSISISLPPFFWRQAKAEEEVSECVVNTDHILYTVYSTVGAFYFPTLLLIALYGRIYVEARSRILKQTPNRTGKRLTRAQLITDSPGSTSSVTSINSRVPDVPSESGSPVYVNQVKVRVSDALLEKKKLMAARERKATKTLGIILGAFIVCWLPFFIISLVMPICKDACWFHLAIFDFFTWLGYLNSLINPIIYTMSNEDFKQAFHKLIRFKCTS
Read-out: ligand displacement
Technique: radioligand
Concentration: 10 µM
SMILES	inhibition [%]
C[C@@H]1CN(c2cc(-c3n[nH]c4ccc(OC5(C)CC5)cc34)ncn2)C[C@H](C)O1	1.16
CCC(=O)N[C@H]1CC[C@@H](C(=O)N(C)c2ccc(-c3nc4ccccc4o3)cc2)C1	25.7
Cn1cncc1[C@@](O)(COc1ccc(C#N)cc1-c1ccc(OC(F)(F)F)cc1)c1ccc(C#N)cc1	3.34
C[C@@]1(Cc2ccc(C#N)cc2)C(=O)N(c2cc(Cl)cc(Cl)c2)c2ncc(C(=O)NC3(c4nc(C5CCC5)no4)CC3)n21	17.5
C[C@@H](c1cccc(C#N)c1)n1cc(Cl)cc(C(N)=O)c1=N	-2.19
CCC(=NO)C(C)=Cc1ccc(F)c(C)c1	-1.04
C[C@H](c1ccc(F)cc1)N(Cc1cccc(C(=O)O)c1)C(=O)c1cnc2ccccc2c1	4.38

Study 3
SMILES: C=CC(=O)N1CCC[C@@H](n2nc(-c3ccc(Oc4ccccc4)cc3)c3c(N)ncnc32)C1
Action: inhibitor
Concentration: 1 µM
target	read-out	inhibition
PIM1 (Homo sapiens, UniProt P11309)	enzyme activity	0%
TAOK1 (Homo sapiens, UniProt Q7L7X3)	enzyme activity	32%
PIKFYVE (Homo sapiens, UniProt Q9Y2I7)	enzyme activity	0%
MAK (Homo sapiens, UniProt P20794)	enzyme activity	13%
CAMK2D (Homo sapiens, UniProt Q13557)	enzyme activity	7%
LATS2 (Homo sapiens, UniProt Q9NRM7)		21%
SGK2 (Homo sapiens, UniProt Q9HBY8)	enzyme activity	10%
PLK1 (Homo sapiens, UniProt P53350)	enzyme activity	0%
Ribosomal protein S6 kinase alpha-1, kinase domain 2 (RPS6KA1, Homo sapiens, UniProt Q15418)		15%
RIOK1 (Homo sapiens, UniProt Q9BRS2)	enzyme activity	14%

Study 4
SMILES: c1ccc(Oc2ccc(Nc3c4c(nc5ccccc35)CCC4)cc2)cc1
cell line	technique	concentration	time	notes	cytotoxicity
HepG2	resazurin	0.32 µM	48 h		7% and 3%
PMA-differentiated THP-1 macrophages		80 µM	64 h		100%
J774.1	resazurin	0.066 µM			-6% and -8%
J774.1	resazurin	6.66 µM	64 h		-5% and -4%
J774.1	resazurin	33.32 µM	64 h		40%
PMA-differentiated THP-1 macrophages		0.08 µM	64 h		13% and 6%
RAW264.7	resazurin	1.66 µM			11% and -9%
PMA-differentiated THP-1 macrophages		0.004 µM	64 h		7% and 2%
HEK293	resazurin	0.066 µM		10% serum	6%

Excerpt of the above (study 2):
SMILES	inhibition [%]
C[C@@]1(Cc2ccc(C#N)cc2)C(=O)N(c2cc(Cl)cc(Cl)c2)c2ncc(C(=O)NC3(c4nc(C5CCC5)no4)CC3)n21	17.5
CCC(=O)N[C@H]1CC[C@@H](C(=O)N(C)c2ccc(-c3nc4ccccc4o3)cc2)C1	25.7
CCC(=NO)C(C)=Cc1ccc(F)c(C)c1	-1.04
C[C@@H](c1cccc(C#N)c1)n1cc(Cl)cc(C(N)=O)c1=N	-2.19
Cn1cncc1[C@@](O)(COc1ccc(C#N)cc1-c1ccc(OC(F)(F)F)cc1)c1ccc(C#N)cc1	3.34
C[C@@H]1CN(c2cc(-c3n[nH]c4ccc(OC5(C)CC5)cc34)ncn2)C[C@H](C)O1	1.16
